Literature values, collected from citations in different studies.
Each numbered part shows a few of the values that one paper quotes.

Set 1
SMILES: OCCN1CCN(CCC=C2c3ccccc3Sc3ccc(C(F)(F)F)cc32)CC1
Cell line: MCF7
Method: microarray
Concentration: concentration not given
Baseline: DMSO
The “log2 fold change” was 1.21 (measured: SLC38A2 mRNA).
For measured: TSC22D3 mRNA: “log2 fold change” read 1.23.
The “log2 fold change” was 1.69 (measured: SQLE mRNA).
The “log2 fold change” was 1.18 (measured: UPP1 mRNA).
The “log2 fold change” was 1.12 (measured: TRAF5 mRNA).
It gave 0.96 for “log2 fold change” (measured: ZNHIT2 mRNA).
It gave 0.96 for “log2 fold change” (measured: TNFAIP3 mRNA).

Set 2
Organism: Cryptosporidium parvum
Method: high-throughput screen
Concentration: concentration not given
For `COC(=O)N1CCN(C(=O)Cc2ccc(Cl)c(Cl)c2)C(CN2CCCC2)C1.O=C(O)/C=C/C(=O)O` (stereo not shown), activity read “inactive”.
Under activity, `CCOC(=O)c1cncn1[C@H](C)c1ccccc1` is recorded as “inactive”.
For `COc1cccc(C2(O)CCCCC2CN(C)C)c1.Cl` (stereo not shown), activity read “inactive”.
`Cl.O.Oc1ccc2c3c1O[C@H]1c4[nH]c5ccccc5c4C[C@@]4(O)[C@@H](C2)N(CC2CC2)CC[C@]314` — result for activity: “inactive”.
`COc1ccc2[nH]cc(C3=CCNCC3)c2c1`: activity “inactive”.
Under activity, `C[C@]12CCC(=O)C[C@@H]1CC[C@@H]1[C@@H]2CC[C@@]2(C)[C@H]1CC[C@]2(C)O` is recorded as “inactive”.
`Br.COc1ccc2c(c1)[C@]13CCCC[C@@H]1[C@H](C2)N(C)CC3`: activity “inactive”.
For `CN1C(=O)CN=C(c2ccccc2)c2cc(Cl)ccc21`, activity read “inactive”.
`CNC(=O)Oc1ccc2c(c1)[C@]1(C)CCN(C)[C@@H]1N2C.CNC(=O)Oc1ccc2c(c1)[C@]1(C)CCN(C)[C@@H]1N2C.O=S(=O)(O)O` — result for activity: “inactive”.
`C[C@]12CCC(=O)C=C1CC[C@@H]1[C@@H]2CC[C@@]2(C)[C@H]1CC[C@]2(C)O`: activity “inactive”.
`C[C@]12CC[C@H](O)CC1=CC[C@@H]1[C@@H]2CC[C@@]2(C)[C@H]1CC[C@]2(C)O` — result for activity: “inactive”.
`CN1CC[C@@H](c2ccc(F)cc2)[C@H](COc2ccc3c(c2)OCO3)C1`: activity “inactive”.
`C=CCN1CC[C@]23c4c5ccc(O)c4O[C@H]2C(=O)CC[C@@]3(O)[C@H]1C5` — result for activity: “inactive”.
For `COc1cc2c(cc1OC)[C@@]13CCN4CC5=CCO[C@H]6CC(=O)N2[C@H]1[C@H]6[C@H]5C[C@H]43`, activity read “inactive”.

Other studies, line by line
`CN1CC[C@]23c4c5ccc(O)c4O[C@H]2[C@@H](O)CC[C@@]3(O)[C@H]1C5` has an ED50 of 1.3 mg/kg (analgesia, Haffner tail-clip test; mouse; subcutaneous).
`[2H]C([2H])([2H])C1(C([2H])([2H])[2H])NC(=O)N(c2ccc(F)c(C(F)(F)F)c2)C1=O` — result for “worm burden reduction”: 9% (Schistosoma mansoni; juvenile, infected mice; oral, 50 mg/kg single dose).
`COc1ccc2c3c1O[C@H]1[C@@H](O)CC[C@@]4(O)[C@@H](C2)N(C)CC[C@]314` gave an ED50 of 10 mg/kg (analgesia, Haffner tail-clip test; mouse; subcutaneous).
Under “volume of distribution”, `C[C@@H](O)[C@@H]1NC(=O)[C@H](CCCCN)NC(=O)[C@@H](Cc2c[nH]c3ccccc23)NC(=O)[C@H](Cc2ccccc2)NC(=O)[C@@H](NC(=O)[C@H](N)Cc2ccccc2)CSSC[C@@H](C(=O)N[C@H](CO)[C@@H](C)O)NC1=O` is recorded as 18 to 30 L (healthy volunteers; dose not given).
Under “volume of distribution at steady state”, `NC(=O)C[S+]([O-])C(c1ccccc1)c1ccccc1` (stereo not shown) is recorded as 0.72 L/kg (human; dose not given).
The unchanged fraction of `C=C1C[C@@H]2[C@H](CC[C@]3(C)C(=O)CC[C@@H]23)[C@@]2(C)C=CC(=O)C=C12` is reported as < 10% (patients, plasma; dose not given).
With `c1csc(-c2ccc(-c3cccs3)s2)c1` the LD50 was 110 mg/kg (rat; intraperitoneal).
